Experimental data of several laboratories.
Every numbered part comes from another study and shows a few of its results, in no order. Substitutions count along the parent as printed.

Study 1 — method: RNAcompete; form: RNA; medium: in vitro; tested at: 20 nM; notes: 7-mer, probes averaged, single round; baseline: mean of 7-mers; direction: higher = stronger binding; measurement: 7-mer Z-score
Target: PABPC1L2, full length, GST fusion (mouse, UniProt A0ABA7IW68)
Target sequence (chain): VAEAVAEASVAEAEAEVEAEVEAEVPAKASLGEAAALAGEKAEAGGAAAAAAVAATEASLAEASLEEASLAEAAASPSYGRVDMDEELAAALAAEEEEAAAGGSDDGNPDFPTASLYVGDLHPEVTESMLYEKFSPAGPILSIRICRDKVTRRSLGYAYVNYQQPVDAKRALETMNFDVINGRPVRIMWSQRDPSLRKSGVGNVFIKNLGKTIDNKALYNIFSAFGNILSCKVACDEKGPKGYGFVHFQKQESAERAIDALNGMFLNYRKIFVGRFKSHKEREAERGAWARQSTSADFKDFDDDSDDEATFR
Oligonucleotide = GGCAAUG; value = 0.138
Oligonucleotide = ACCGGUU; value = -0.273
Oligonucleotide = UGGAUAC; value = 0.12
Oligonucleotide = CUUGAUU; value = -0.103
Oligonucleotide = CAUACAC; value = -0.0863
Oligonucleotide = AUUUAAA; value = 0.74
Oligonucleotide = AUAGCUG; value = -0.153
Oligonucleotide = AAUAAAC; value = 2.83
Oligonucleotide = UCUUAGA; value = -0.202
Oligonucleotide = GCAAGUC; value = -0.338
Oligonucleotide = CUCGCGC; value = -0.407
Oligonucleotide = AGCUCCC; value = -0.233
Oligonucleotide = AGCCUUU; value = -0.244
Oligonucleotide = CAGUCGC; value = -0.2
Oligonucleotide = AAAUAUG; value = 3.29
Oligonucleotide = AACUCAU; value = -0.0989
Oligonucleotide = ACCGGGG; value = 0.108
Oligonucleotide = ACCCAUC; value = -0.267
Oligonucleotide = CAACCCG; value = -0.217
Oligonucleotide = UCAACCG; value = -0.204
Oligonucleotide = ACUUAGA; value = 0.000733
Oligonucleotide = ACGUAUG; value = -0.108
Oligonucleotide = AUGACGC; value = -0.124
Oligonucleotide = UCGGCCA; value = -0.0881
Oligonucleotide = CGUUUCA; value = -0.443

Study 2 — method: protein-binding microarray; form: double-stranded DNA, one strand shown; medium: in vitro; tested at: 250 nM; notes: 60-bp whole probe; together with: salmon DNA 0.4 mg/ml; baseline: random background probes; direction: higher = stronger binding; measurement: log fluorescence; constant ends, left off below: GCCTAGCAC … GTCTTGATTCGCTTGACGCTGCTG
Target: Interferon regulatory factor 7, full length, phosphomimetic (IRF7, Homo sapiens, UniProt Q92985, residues 1-503, S101K/S471D/S472D/S475D/S476D/S477D/S483D/S484D/S487D)
Target sequence (chain): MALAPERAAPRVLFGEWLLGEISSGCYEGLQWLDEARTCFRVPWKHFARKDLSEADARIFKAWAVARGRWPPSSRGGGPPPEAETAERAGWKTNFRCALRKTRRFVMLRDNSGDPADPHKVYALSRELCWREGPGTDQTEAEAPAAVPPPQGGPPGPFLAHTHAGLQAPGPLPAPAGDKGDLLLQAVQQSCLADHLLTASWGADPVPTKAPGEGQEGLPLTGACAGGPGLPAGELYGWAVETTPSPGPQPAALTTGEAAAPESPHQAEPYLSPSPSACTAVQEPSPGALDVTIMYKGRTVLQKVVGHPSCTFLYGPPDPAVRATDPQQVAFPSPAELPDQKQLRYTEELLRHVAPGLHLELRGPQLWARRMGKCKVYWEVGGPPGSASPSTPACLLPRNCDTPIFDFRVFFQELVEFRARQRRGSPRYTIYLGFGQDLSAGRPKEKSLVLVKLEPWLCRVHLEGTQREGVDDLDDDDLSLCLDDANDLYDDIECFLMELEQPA
Oligonucleotide = TCAGTTTTCTCATTCGTACTGTGCTAG; value = 1.74 z-score
Oligonucleotide = GACGAACTGGGGACTGGAGAAGTGCTA; value = -0.587 z-score
Oligonucleotide = CATCATTGCCTATTTTTCACCGTGCTA; value = 0.0215 z-score
Oligonucleotide = GACGGTTTTGGTATCGGGACGTGCTAG; value = 1.73 z-score
Oligonucleotide = TTAGGTATCGACACTGGGTAAGTGCTA; value = -0.0755 z-score
Oligonucleotide = GACGGTTTGGGTCTCGGGACGTGCTAG; value = 0.31 z-score
Oligonucleotide = GACGATTTGGGGTTTCGAGACGTGCTA; value = 2.18 z-score
Oligonucleotide = TACGGACTGGACACTGGGGACGTGCTA; value = -0.709 z-score
Oligonucleotide = GACGGTATCGGACGGGGGACGTGCTAG; value = 0.564 z-score
Oligonucleotide = TACGATATCAGTTTCGAGACGTGCTAG; value = 4.38 z-score
Oligonucleotide = TTAGGTTTCGAAACTGGGTTAGTGCTA; value = 6.78 z-score
Oligonucleotide = TTAGGTATCTTTTTCCTTTAGTGCTAG; value = 1.6 z-score
Oligonucleotide = GACGGTTACGGACTGGGGACGTGCTAG; value = -0.306 z-score
Oligonucleotide = GACGATTACGGGACTGGAGACGTGCTA; value = -0.449 z-score
Oligonucleotide = TCCAAATTGTCTCTGTCCCTGTGCTAG; value = -0.263 z-score
Oligonucleotide = TCAATTCTCTACTTGTGACTGTGCTAG; value = 1.27 z-score
Oligonucleotide = GACGAATTGGGGACTGGAGACGTGCTA; value = -0.52 z-score
Oligonucleotide = TTAGGGATCGGGTTTCGGTTAGTGCTA; value = 6.71 z-score

Study 3 — target: CRIPT, C-terminal peptide; method: DHFR complementation, deep sequencing; medium: yeast; baseline: wild type; direction: higher = weaker binding; measurement: binding free energy change
Notes: single substitutions, model-inferred values
Starting sequence: ERBIN, PDZ domain 1 (human); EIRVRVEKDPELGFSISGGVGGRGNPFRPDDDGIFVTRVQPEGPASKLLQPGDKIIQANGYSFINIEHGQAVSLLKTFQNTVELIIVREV; partner TKNYKQTSV
Change = R3F; value = 0.0265 kcal/mol
Change = N65L; value = 0.157 kcal/mol
Change = G22M; value = -0.369 kcal/mol
Change = L48K; value = -0.0324 kcal/mol
Change = I16R; value = 0.472 kcal/mol
Change = R5L; value = 0.0722 kcal/mol
Change = K8L; value = 1.42 kcal/mol
Change = R5Q; value = 0.0938 kcal/mol
Change = S46M; value = 0.0464 kcal/mol
Change = V72Y; value = 1.32 kcal/mol
Change = T77R; value = -0.00491 kcal/mol
Change = I16V; value = 0.444 kcal/mol
Change = S73V; value = 0.0354 kcal/mol
Change = P26T; value = 0.881 kcal/mol
Change = I86Y; value = 0.216 kcal/mol
Change = F78V; value = 0.264 kcal/mol
Change = S73I; value = 0.0896 kcal/mol
Change = Q40F; value = 0.237 kcal/mol

Study 4 — target: CCNB3, cyclin fold, Cln2 fusion (human); method: yeast growth competition, sequencing; medium: yeast; notes: weak parent motif; baseline: not given; direction: higher = stronger binding; measurement: normalised enrichment score
Starting sequence: WEE1 docking peptide (human); HKTFRKLRLFDTP; partner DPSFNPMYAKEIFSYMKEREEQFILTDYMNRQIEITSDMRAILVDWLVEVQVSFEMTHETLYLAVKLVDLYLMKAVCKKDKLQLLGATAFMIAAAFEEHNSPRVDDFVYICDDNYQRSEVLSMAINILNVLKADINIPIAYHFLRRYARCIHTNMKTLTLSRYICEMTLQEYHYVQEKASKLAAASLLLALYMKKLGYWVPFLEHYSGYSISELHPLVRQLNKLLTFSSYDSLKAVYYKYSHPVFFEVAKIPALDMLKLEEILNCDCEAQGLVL
Change = HYTFRKLRLFDTP [K2Y]; value = -0.00528
Change = HKTFRKLRLFITP [D11I]; value = -0.444
Change = HKTCRKLRLFDTP [F4C]; value = 0.144
Change = HKTMRKLRLFDTP [F4M]; value = 0.228
Change = HKTFRKLKLFDTP [R8K]; value = 0.39
Change = HKTFRKLRLFDTV [P13V]; value = 0.0859
Change = HKTFRKLRLKDTP [F10K]; value = -0.337
Change = HKTFRKLRLFGTP [D11G]; value = -0.471
Change = HKTFRMLRLFDTP [K6M]; value = -0.45
Change = HKTFRKLRLFDTD [P13D]; value = 0.4
Change = HKTFRKLRLFMTP [D11M]; value = 0.271
Change = HKTFRKHRLFDTP [L7H]; value = -0.269
Change = HKTFRKLRLQDTP [F10Q]; value = -0.454
Change = HKTFRKLRLHDTP [F10H]; value = -0.282
Change = HKTFRKLRLFATP [D11A]; value = -0.106
Change = HKTFRKLRLFDLP [T12L]; value = 0.0622
Change = HKTFRKLRLFDYP [T12Y]; value = -0.059
Change = HKTFRKLRLFDWP [T12W]; value = 0.0465
Change = HKNFRKLRLFDTP [T3N]; value = -0.727
Change = HKTFRKLRLFDIP [T12I]; value = 0.648
Change = HKTFRKLRLFDTR [P13R]; value = -0.105
Change = QKTFRKLRLFDTP [H1Q]; value = 0.048
Change = HKTFRKLRLFDFP [T12F]; value = 0.0778
Change = HKTFRKLCLFDTP [R8C]; value = 0.67

Study 5 — method: aptamer microarray, sandwich; form: DNA with 2'F-ANA; medium: in vitro; tested at: 200 nM; together with: Cy3 exosite-II aptamer, 400 nM; direction: higher = stronger binding; measurement: mean fluorescence intensity; oligonucleotide: GGTTGGTGTGGTTGG
Target: Prothrombin, mature alpha-thrombin (F2, Homo sapiens, UniProt P00734)
Notes: whole 15-mer aptamer, many near background
Modification = 2'F-ANA at 7 8 11 12 15; value = 779 a.u.
Modification = 2'F-ANA at 1 5 14; value = 44.1 a.u.
Modification = 2'F-ANA at 1 3 6 7 8 9 12 13; value = 411 a.u.
Modification = 2'F-ANA at 1 2 3 5 6 7 8 9; value = 70.2 a.u.
Modification = 2'F-ANA at 3 5 6 7 11 12 13 14 15; value = 57.5 a.u.
Modification = 2'F-ANA at 1 5 6 10 13 15; value = 44.7 a.u.
Modification = 2'F-ANA at 1 2 5 6 8 9 12 15; value = 110 a.u.
Modification = 2'F-ANA at 9 12 15; value = 847 a.u.
Modification = 2'F-ANA at 4 7 9 11 13 15; value = 166 a.u.
Modification = 2'F-ANA at 1 4 6 7 8 9 12 15; value = 236 a.u.
Modification = 2'F-ANA at 3 7 12 15; value = 1540 a.u.
Modification = 2'F-ANA at 2 3 4 5 8 14 15; value = 49.5 a.u.
Modification = 2'F-ANA at 2 5 7 8; value = 94.7 a.u.
Modification = 2'F-ANA at 2 9 10 12; value = 173 a.u.
Modification = 2'F-ANA at 1 2 4 5 6 7 8 9 12 13 14 15; value = 54.7 a.u.
Modification = 2'F-ANA at 1 2 4 5 6 7 8 10 11 13 14 15; value = 52 a.u.
Modification = 2'F-ANA at 4 7 8 11 12 13 14 15; value = 118 a.u.
Modification = 2'F-ANA at 1 3 4 7 8 13 14; value = 88.8 a.u.
Modification = 2'F-ANA at 1 2 3 5 7 8 9 10 12 13; value = 49.8 a.u.
Modification = 2'F-ANA at 1 2 3 4 5 6 8 9 11 12 13 14; value = 64.7 a.u.
Modification = 2'F-ANA at 1 2 4 5 6 7 9 13 14 15; value = 47.5 a.u.
Modification = 2'F-ANA at 1 3 5 10 15; value = 87.3 a.u.
Modification = 2'F-ANA at 1 3 5 9 11 12 13 14 15; value = 47.4 a.u.

Study 6 — method: protein binding microarray; form: double-stranded DNA, one strand shown; medium: in vitro; tested at: not given; baseline: not given; direction: higher = stronger binding; measurement: E-score
Target: Histone acetyltransferase KAT6A, winged helix 1, GST fusion (KAT6A, Homo sapiens, UniProt Q92794, residues 1-85)
Notes: 8-mer, flanks averaged, mean of 2 arrays, mostly near background
Target sequence (chain): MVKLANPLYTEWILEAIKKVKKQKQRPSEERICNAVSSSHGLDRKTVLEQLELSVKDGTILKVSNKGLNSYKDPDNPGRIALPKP
Oligonucleotide = CCTTATAA; value = -0.0173
Oligonucleotide = ATATCAAC; value = -0.166
Oligonucleotide = AGATAAAG; value = -0.0324
Oligonucleotide = GTGTACAC; value = 0.0196
Oligonucleotide = ACTGACCC; value = -0.023
Oligonucleotide = CTGCTAAC; value = -0.171
Oligonucleotide = TCAACCGA; value = 0.0908
Oligonucleotide = AGTGGGGA; value = -0.0958
Oligonucleotide = GTATCTCA; value = 0.0314
Oligonucleotide = CTTAGGAA; value = -0.206
Oligonucleotide = CAGGCGGC; value = 0.304
Oligonucleotide = ATCTTGGC; value = -0.2
Oligonucleotide = CCCACCGA; value = -0.156
Oligonucleotide = ATAGAGTA; value = -0.0433
Oligonucleotide = AAACCATT; value = -0.144
Oligonucleotide = TATATGGA; value = -0.172
Oligonucleotide = CCCCCAGG; value = -0.181
Oligonucleotide = GCGTATCC; value = 0.15
Oligonucleotide = ATGGAATA; value = -0.141
Oligonucleotide = CCGAAGCC; value = 0.193
Oligonucleotide = ACGCTTAT; value = 0.00719
Oligonucleotide = ACATGAAA; value = -0.173

Repeated from above (study 1):
Oligonucleotide = AGCCUUU; value = -0.244
Oligonucleotide = CAGUCGC; value = -0.2
Oligonucleotide = AAAUAUG; value = 3.29
Oligonucleotide = AACUCAU; value = -0.0989
Oligonucleotide = ACCGGGG; value = 0.108
Oligonucleotide = ACCCAUC; value = -0.267
Oligonucleotide = CAACCCG; value = -0.217
Oligonucleotide = UCAACCG; value = -0.204
Oligonucleotide = ACUUAGA; value = 0.000733
Oligonucleotide = ACGUAUG; value = -0.108
